# Measured values from different studies.
# Each numbered part is a random draw from the data of one study; scales do not carry over between parts. Substitutions count along the parent as printed.

# Sample 1 — method: DHFR PCA, deep sequencing; medium: yeast; with: (+)-ABA 200 µM; reference: wild-type fitted maximum; direction: higher = stronger binding
# Target: ABI1, truncated, D143A, DHFR fusion (Arabidopsis thaliana)
# Setting: methotrexate growth selection, single substitutions
# Starting sequence: PYL1, truncated, DHFR fusion (Arabidopsis thaliana); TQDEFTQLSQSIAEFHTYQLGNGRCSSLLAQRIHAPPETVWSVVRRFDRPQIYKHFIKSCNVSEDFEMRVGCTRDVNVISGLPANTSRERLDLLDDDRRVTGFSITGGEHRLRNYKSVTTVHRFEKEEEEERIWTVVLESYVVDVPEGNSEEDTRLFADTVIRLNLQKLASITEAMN
Variant,relative binding score [%]
R163S,84.7
G102F,-5.55
A13E,103
F66K,87.4
V161A,21.6
L112D,-15.3
V142K,76.8
G108S,43
I162Y,4.1
N114S,73.1
T101C,104
T86P,4.89
G108Y,21.5
S42P,88.2

# Sample 2 — target: CCND1, cyclin fold, Cln2 fusion (human); method: yeast growth competition, sequencing; medium: yeast; setting: strong parent motif; reference: not given; direction: higher = stronger binding
# Starting sequence: RBL2 docking peptide (human); STTRRRLFVENDS; partner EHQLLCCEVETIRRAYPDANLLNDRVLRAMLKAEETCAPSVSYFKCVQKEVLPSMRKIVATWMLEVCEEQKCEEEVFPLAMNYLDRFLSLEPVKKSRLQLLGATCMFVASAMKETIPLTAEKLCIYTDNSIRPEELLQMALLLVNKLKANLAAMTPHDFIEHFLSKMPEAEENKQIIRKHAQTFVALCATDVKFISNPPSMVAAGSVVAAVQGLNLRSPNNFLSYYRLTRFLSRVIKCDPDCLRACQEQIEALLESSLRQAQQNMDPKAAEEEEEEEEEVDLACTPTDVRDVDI
Variant,normalised enrichment score
T3C,1.67
E10T,-0.32
N11M,0.977
V9Q,0.849
L7Q,0.113
F8V,0.107
V9W,1.44
L7A,0.586
F8A,-0.214
S1R,0.958
N11K,0.529
D12Y,0.342
V9E,1.19
S1N,0.947
T3A,2.69
T3I,0.179
T3F,-0.45
E10N,0.511
N11C,1.06
R4I,2.3
D12L,-0.165
N11G,0.938
T2P,1.41
S13A,0.748
F8D,0.107

# Sample 3 — target: ATF1, bZIP domain (human); method: DHFR protein complementation; medium: yeast; reference: wild-type JUN-FOS pair; direction: higher = stronger binding
# Setting: single substitutions, most at no-binding floor
# Starting sequence: JUN, bZIP domain (human); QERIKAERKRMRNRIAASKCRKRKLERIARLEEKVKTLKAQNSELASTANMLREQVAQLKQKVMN; partner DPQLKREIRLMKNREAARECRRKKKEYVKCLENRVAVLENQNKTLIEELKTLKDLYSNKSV
Variant,binding fitness [natural log]
L31Y,-1.48
E54H,-1.53
K34G,-1.52
R30C,-1.56
I28R,-1.47
Q58P,-1.45
L52I,-1.53
V35P,-1.58
M51D,-1.41
R53M,-1.58
A40L,-1.49
V56E,-1.64
E54Q,-1.53
T37Y,-1.47
A49F,-1.53
V35S,-1.52
I28F,-1.55
E33P,-1.52
E33S,-1.56
A40Q,-1.48
V35W,-1.56
R30V,-1.45
V35L,-1.53
S43I,-1.44

# Sample 4 — method: RNA Bind-n-Seq; molecule type: RNA; medium: in vitro; tested at: 365 nM; reference: no-protein control; direction: higher = stronger binding
# Target: RNA binding protein fox-1 homolog 2, RRM domain, GST-SBP tag (RBFOX2, Homo sapiens, UniProt O43251-10, residues 100-194)
# Setting: natural RNA segment, single round, ends assumed
# Target sequence (chain): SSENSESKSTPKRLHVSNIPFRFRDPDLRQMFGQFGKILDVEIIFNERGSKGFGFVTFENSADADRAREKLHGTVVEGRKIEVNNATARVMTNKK
Strand,RBNS enrichment (R)
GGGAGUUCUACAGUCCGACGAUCUGAACAGACUAUAACUAGGAAAGGAGGAAAGGUAUCAGGGAUUUUUAAGUCCGUUUAGAGAGCAAACCAUAUUGUGCCUCUUCAUCUUGACCCAGGCUCUUAUAGAUAGGUGGAAUUCUCGGGUGCCAA,0.449
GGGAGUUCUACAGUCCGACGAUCUGUCCUUCUGAUAAAUAAAGCCCUUGCUGAAGGAAAAGCAACCUAGAUCACCUUAUGGAUGUCGCAAUAAUACAAACCAGUGUACCUCUGACCUUCUCAUCAAGAGAGCUUGGAAUUCUCGGGUGCCAA,0.367
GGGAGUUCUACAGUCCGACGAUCACAAAAAAGCACAAGCCCGCUGCAUGACCCGUCUCUCCUUUCUGGGACUAUUUCUGCUGCGUCCUGCACCCUCCUGGGCCCACCUCCGAUUCACAGAGGUUUCAGGGGGAUGGAAUUCUCGGGUGCCAA,1.16
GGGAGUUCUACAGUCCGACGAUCACUCUUUGCCAGCAGCCACAACAUGCAUUGACAGCGGCACAGUGAGAUAUAACUGAUGGGCUUUGAACCUGGUUGGCCGGGGAAGCUGUAGGGGUGGAUAGAGCUGGCUUUGGAAUUCUCGGGUGCCAA,1.41
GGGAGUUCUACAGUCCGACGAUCUCUGACCUUCUCAUCAAGAGAGCUGGGGUGCUUUGAAGAUAAUCCCUACCCCUCUCCCCCAAAUGCAGCUGAAGCAUUUUACAGUGGUUUGCCAUUAGGGUAUUCAUUCAUGGAAUUCUCGGGUGCCAA,0.36
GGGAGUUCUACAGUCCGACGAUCCAUAUGAAGAAAUGGAGACAUUAACUUCGUUCUAAAGCCUGAUUGUAGAUUGCUCCUUAAAACUGAACAGUUAGUGUUUGAAGUUGAAAUGCUGAAUAUAAUGUGAAUAGUGGAAUUCUCGGGUGCCAA,1.18
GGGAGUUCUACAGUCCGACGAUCCUGCAGUGUCUCAUCUCAUAGACUGUGAACCUGUAUAUUAUUCAAAUGGCUACAGAUAAUGCUCUUUUCUUUUGUGAGGUCUCUUCAUUUAAUGCACUGCCCAGAAAGAGUGGAAUUCUCGGGUGCCAA,0.658
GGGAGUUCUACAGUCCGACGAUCAUGUCGUAAGUUCUCUGUAAGUGAAAUGGGGUAGACUGUAUGAUUUUCCUAUUGCCAAAAGAAAGAAAGGGGGCCAAACAGCUCUGAAAUUUCCAAAAAAUGGCUAGAGGUGGAAUUCUCGGGUGCCAA,0.563
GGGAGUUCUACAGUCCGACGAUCCAGAUGGAUUAUUUGUCGACCAAAAUGAUGCCAAUUUGUAAAUUAAAAUGUCACCUAGUGGCCCUUUUUCUUAUGUGUUUUUUGUAUAAGAAAUUUUCUGUGAAAUAUUCUGGAAUUCUCGGGUGCCAA,0.497
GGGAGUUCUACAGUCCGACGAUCAUGUAUUCUUCAGUUUUCCCACUUCUCAGUGUCUUCACUCUAAGGACUUUUCCUGUCACUGUGAACUUUGCUGGUUAUCUGCCUUCAAUUUUUGGACCACAAACCACCCUUGGAAUUCUCGGGUGCCAA,0.25
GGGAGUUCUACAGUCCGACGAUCUGUGCGUAUUUAAAUUAGAUUAUUUAUAAUAACCAGAGCCAGCCCUCGCGCUGGCCAGGAUCCUCCUGCCGAGCUGAUGUCGCUCCUGCCCUCUGCCGGGGUCCGGAAGCUGGAAUUCUCGGGUGCCAA,0.282
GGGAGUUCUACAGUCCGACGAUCUGUUCAGAUGUCAUGUGCUGUCUACAUCAUGAGCUUUGGCUUAGGAGAACCUACAAAGCUGGCAGAGUUUUGUCUUGCAUUGCGCCUCUCAGUGAACCUUCUCAGUAAAUUGGAAUUCUCGGGUGCCAA,0.419

# Sample 5 — method: RNA Bind-n-Seq; molecule type: RNA; medium: in vitro; tested at: 100 nM; reference: input RNA pool; direction: higher = stronger binding
# Target: RING finger protein unkempt homolog, zinc fingers 1-6, SBP tag (UNK, Homo sapiens, UniProt Q9C0B0, residues 30-357)
# UniProt Q9C0B0, sequence (30-357, looked up): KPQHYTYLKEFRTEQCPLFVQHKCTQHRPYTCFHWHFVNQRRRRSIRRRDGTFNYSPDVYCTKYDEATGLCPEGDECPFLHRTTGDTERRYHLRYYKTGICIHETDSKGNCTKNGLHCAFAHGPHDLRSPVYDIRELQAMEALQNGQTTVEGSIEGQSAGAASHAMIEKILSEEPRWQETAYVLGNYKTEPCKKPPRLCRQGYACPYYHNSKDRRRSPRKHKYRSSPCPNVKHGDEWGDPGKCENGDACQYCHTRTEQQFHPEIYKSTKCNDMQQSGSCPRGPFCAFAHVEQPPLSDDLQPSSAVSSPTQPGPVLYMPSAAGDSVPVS
# Setting: RNA with constant flanks, vertebrate orthologous sites, ends assumed
Strand,bound/input enrichment [ratio]
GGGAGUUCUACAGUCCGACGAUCUUCAGGCACAACUGACUGGUUCACAACAUCCCUUACAUAGUUAUCUGUCAAGUGCAAGUAUUGGUAAUUUUCAGGAAACAUCUAGACAGUCAUCUUUAUCCUGUAGCUCAAUUCGAGAUUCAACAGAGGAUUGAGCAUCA,0.738
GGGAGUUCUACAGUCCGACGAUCGUUGUGAUCCUUUUAACAUACACAAAAAACUUGCCAAGAAAAAUUUGCAUGCGAUUGACUUAGAUGAUGCCACUUUCCUAAGUGCCAAGUUUGGAAGACAGCUUGUACCUGGUUGGAAGCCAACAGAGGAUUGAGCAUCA,0.535
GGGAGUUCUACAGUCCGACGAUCGUGGUUUUUAAACGUCAAUUGUGCAUAGCUUUGUGCUAAAGAUUGUGUUAGACUUAAAAAUUCAUGAAUUGGUUCUUUGUUGUGUUUUCAUUAUUGAAAAUAAAUAAAACUUUGAAUCUUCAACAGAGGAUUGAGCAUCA,0.272
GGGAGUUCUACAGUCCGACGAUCGUGAGCAGUGGAUUCUGGAGCAGAGCAAGGAGCAAGUCAAGCAAACCUCCAGUGAAACUGCUGCCAUCUGCACUAUCGUUAACCUGCUGUCACCUUUUUCAUAUAUAUAUAAAAUACUUACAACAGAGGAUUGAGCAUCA,0.214
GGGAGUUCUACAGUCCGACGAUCGUCAUUUUUUUUUUCACAUUUCCUGUAAAUAGUGGAUAAUCGUUUUUUUAUUUUAUUUUUAAGUGCUGUGUUAACAAUGUGGAUAGACCAUAAAUGUACUUGCUGAAUUCAUACAUUUUUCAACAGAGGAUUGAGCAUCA,1.81
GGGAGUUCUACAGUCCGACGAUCCAUGUAGUUUGUUUUUAAUUUCAAGCAAAUCUUAUUGUACUUGAAUGUGCCCUGUUUUGUUAGCACACCUAGACUUGCUGUAAACUGUACUCAUGUCCCAGUAUGUACGUUCUUUCUAUGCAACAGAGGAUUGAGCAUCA,1.2
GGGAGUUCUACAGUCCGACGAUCAAUUGAAUAAAAACAUUUCCACUGGGUUUUGCCUGUAAGAAAAAAAUGUACCCGAGCCCAUAGAGCUUUUUAAUAAUAGCACUAACCAAUGCCUUUUUAGAUGUAUUUUUGAUGUAUAUACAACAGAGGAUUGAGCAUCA,1.51
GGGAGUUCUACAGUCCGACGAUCACUGUUGUUAAGCACUGUGUUCCAGACUGUGUCUGACUUAGUGUAACCUAGGAGAUUUUAUAGUUUUAUUUUAAUGAACUCCUGAUUGACGCAGAGCAGUGGGAGAAUGGUCCCUUUUACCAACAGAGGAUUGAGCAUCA,2.46
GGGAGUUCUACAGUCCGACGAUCGUUGUGACCCAUUUAAUAUACACAAAAAACUAGCCAAAAAGAAUUUGCAUGUGAUUGACUUAGAUGAUGCCACCUUCCUGAGUGCAAAAUUUGGAAGGCAGCUGGUACCUGGUUGGAAGCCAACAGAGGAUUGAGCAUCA,0.839
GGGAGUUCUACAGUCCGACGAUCGUUAGGUCAUGACCCUUACAGGCUAGGUCAUGAUGCCUACAGGUUAGGGCAGGAUCCCUAUAGAUUAGGCCAUGAUCCCUACAGACUAACUCCUGAUCCCUAUAGAAUGUCACCUAGACCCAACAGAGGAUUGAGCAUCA,0.6
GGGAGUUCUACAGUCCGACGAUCGUCUGUCUCGCAGAGCCGGGGAGCGUCCGAGUGGCCGGGGCCCUUACUUUGUUUCUUUUCCUCGGGGUGGGGGUGGGUCGUGGCGCCCACCGUGCUGGGGCGUCAGCGUGGAUGGUGCGUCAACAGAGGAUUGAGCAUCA,0.725

# Repeated from above (sample 3):
Variant,binding fitness [natural log]
E33P,-1.52
E33S,-1.56
A40Q,-1.48
V35W,-1.56
R30V,-1.45
V35L,-1.53
S43I,-1.44
